Measurements from different studies.
Compare with care: the assays were run in different laboratories. Several values in a cell are separate wells, animals, samples, runs or records. ± gives the spread as reported. In brackets after ≈: the same amount, converted by molar mass.
Chain of UniProt P08235 (whole entry, looked up): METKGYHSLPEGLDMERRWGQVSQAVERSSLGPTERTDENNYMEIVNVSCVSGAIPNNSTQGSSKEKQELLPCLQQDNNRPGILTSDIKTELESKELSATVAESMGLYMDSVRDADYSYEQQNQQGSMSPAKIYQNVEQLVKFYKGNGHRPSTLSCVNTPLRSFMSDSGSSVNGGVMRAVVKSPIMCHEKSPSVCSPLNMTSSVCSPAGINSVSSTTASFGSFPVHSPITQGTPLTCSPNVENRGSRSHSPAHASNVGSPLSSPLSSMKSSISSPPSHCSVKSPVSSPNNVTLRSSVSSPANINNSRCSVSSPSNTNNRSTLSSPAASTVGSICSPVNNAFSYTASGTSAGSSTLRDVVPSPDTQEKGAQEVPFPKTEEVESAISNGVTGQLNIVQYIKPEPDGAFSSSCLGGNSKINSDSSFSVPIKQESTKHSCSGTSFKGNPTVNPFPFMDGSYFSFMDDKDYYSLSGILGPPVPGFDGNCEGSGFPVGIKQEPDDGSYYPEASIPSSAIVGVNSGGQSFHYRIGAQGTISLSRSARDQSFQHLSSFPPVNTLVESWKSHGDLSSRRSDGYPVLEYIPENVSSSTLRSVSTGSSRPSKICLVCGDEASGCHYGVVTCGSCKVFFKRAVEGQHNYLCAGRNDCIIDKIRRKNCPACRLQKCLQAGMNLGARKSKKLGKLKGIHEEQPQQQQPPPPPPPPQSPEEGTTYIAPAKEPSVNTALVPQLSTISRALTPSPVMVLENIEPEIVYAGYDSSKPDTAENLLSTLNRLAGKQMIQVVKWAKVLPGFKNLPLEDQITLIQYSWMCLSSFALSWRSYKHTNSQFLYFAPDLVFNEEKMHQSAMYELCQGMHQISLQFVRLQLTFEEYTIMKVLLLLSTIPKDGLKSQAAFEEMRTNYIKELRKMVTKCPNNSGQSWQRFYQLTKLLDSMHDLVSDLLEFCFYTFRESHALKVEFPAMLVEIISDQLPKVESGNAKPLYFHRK

Structure (SMILES)	tested on	test	test system	conditions	scale	endpoint	result
CO[C@H]1/C=C/O[C@@]2(C)Oc3c(C)c(O)c4c(O)c(c(/C=N/N5CCN(C)CC5)c(O)c4c3C2=O)NC(=O)/C(C)=C\C=C\[C@H](C)[C@H](O)[C@@H](C)[C@@H](O)[C@@H](C)[C@H](OC(C)=O)[C@@H]1C	Mycolicibacterium aurum	REMA	ATCC 23366			MIC90	1.25 µg/mL (≈ 1.52 µM)
COc1cc(Nc2ncc(F)c(Nc3ccc4c(n3)NC(=O)C(C)(C)O4)n2)cc(OC)c1OC	Mineralocorticoid receptor (NR3C2, Homo sapiens, UniProt P08235)					IC50	> 10000 nM
O=C(O)c1cc(Br)c(O)c(Br)c1	Tetrahymena pyriformis and Klebsiella pneumoniae	virulence in co-culture				IC50	320 nM
C[C@@H]1O[C@@H](O[C@H]2C[C@@H](O)[C@]3(CO)[C@H]4[C@H](O)C[C@]5(C)[C@@H](C6=CC(=O)OC6)CC[C@]5(O)[C@@H]4CC[C@]3(O)C2)[C@H](O)[C@H](O)[C@H]1O	Oncopeltus fasciatus			diet, concentration not given		eggs per female	341
C[C@H]1CN(c2n[nH]c3nc(N[C@H]4CC[C@H](NS(=O)(=O)CCC(F)(F)F)CC4)ncc23)CCO1	Sodium/potassium-transporting ATPase subunit alpha-1 (ATP1A1, Homo sapiens, UniProt P05023)	inhibitor, Kinobeads competition profiling		0.8 µM	relative to: vehicle	relative abundance	1.49
CCOC(=O)C1(Cc2ccccc2)CN(c2ccccc2)Cc2nnn(CCc3ccccc3OC)c21 (stereo not drawn)	human adenovirus 2	viral replication	HEL			EC50	> 100000 nM
CC1NC(=O)C(C(=O)NC(C(=O)NC2C(=O)N3C2SC(C)(C)C3C(=O)O)c2ccccc2)=C1O (stereo not drawn)	Escherichia coli	broth microdilution	Keio mutant JW5086-3	18 h, ferrienterobactin permease gene		MIC	50 µg/mL (≈ 102 µM)
CC[C@H](C)[C@H](NC(=O)[C@H](C)NC(=O)[C@H](CCCCN)NC(=O)[C@H](CC(C)C)NC(=O)[C@H](C)NC(=O)[C@@H](NC(=O)[C@H](Cc1c[nH]cn1)NC(=O)[C@H](CC(C)C)NC(=O)[C@@H](NC(=O)[C@@H](NC(=O)[C@H](CCCCN)NC(=O)[C@H](C)NC(=O)[C@H](C)NC(=O)[C@H](CO)NC(=O)[C@H](CCCCN)NC(=O)[C@H](Cc1ccccc1)NC(=O)[C@@H](NC(=O)[C@H](CCCCN)NC(=O)[C@H](CC(C)C)NC(=O)[C@H](Cc1ccccc1)NC(=O)[C@H](CO)NC(=O)[C@H](CCCCN)NC(=O)[C@H](Cc1c[nH]c2ccccc12)NC(=O)[C@H](CCCCN)NC(C)=O)[C@@H](C)O)[C@@H](C)O)C(C)C)[C@@H](C)O)C(=O)N[C@@H](CO)C(=O)N[C@@H](CO)C(N)=O	Pseudomonas aeruginosa		ATCC 27853			MIC range	4 µg/mL (≈ 1.36 µM)
CCCCCCCCCCCc1c([N+](=O)[O-])oc2ccc3ccccc3c12	Mycolicibacterium aurum	REMA	ATCC 23366			MIC90	> 32 µg/mL
Cc1ccc(Cn2c(N3CCC(C(=O)NCc4cccs4)CC3)nc3ccccc32)cc1	Plasmodium yoelii	oxygen consumption	17XL	2 µM		inhibition	46%
COC(=O)N[C@H](C(=O)N1CCC[C@H]1c1ncc(-c2ccc(-c3ccc(-c4cnc([C@@H]5CCCN5C(=O)[C@@H](NC(=O)OC)C(C)C)[nH]4)cc3)cc2)[nH]1)C(C)C	Hepatitis C virus		replicon cells	50% effect level, added: IFN-alpha, ratio 2.5:1		combination index	0.67
CN(C)[C@@H]1C(O)=C(C(N)=O)C(=O)[C@@]2(O)C(O)=C3C(=O)c4c(O)cccc4[C@@](C)(O)[C@H]3C[C@@H]12	Acinetobacter baumannii		19606, biofilm	3.125 µg/mL, without HNP1		survival	87.2% and 95.2% and 91.8% and 80% and 82.3% and 102%
COc1cc(CCC[P+](c2ccccc2)(c2ccccc2)c2ccccc2)c(OC)c2c1OCO2.[I-]	U-251	SRB				GI50	-5.79 log M
COC1=CC(c2ccc[nH]2)=N/C1=C\c1[nH]c(C)cc1-c1ccc(OC(F)(F)F)cc1.Cl	Plasmodium yoelii		CF1 mice	oral, 10 mg/kg daily for 4 days, day 5	relative to: vehicle	parasitaemia reduction	100%
CC[C@H](C)[C@@H]1NC(=O)[C@@H]2CCCN2C(=O)[C@H](CC(C)C)NC(=O)[C@H](CC(C)C)NC(=O)CNC(=O)[C@@H](NC(=O)[C@@H](NC(=O)[C@H](CC(=O)O)NC(=O)CNC(=O)[C@@H](NC(=O)[C@H](C)NC(=O)CNC(=O)[C@H](CCCCN)NC(=O)[C@H](CC(C)C)NC(=O)[C@H](CC(C)C)NC(=O)[C@H](CCCCN)NC(=O)CNC(=O)[C@@H](NC(=O)[C@@H](N)CC(C)C)C(C)C)C(C)C)C(C)C)CSSC[C@@H](C(=O)O)NC1=O		RNA-seq, measured: Tmprss6	mouse, traumatic brain injury model, frontal cortex and hippocampus	dose not given	relative to: TBI alone	log2 fold change	-2.73
COCCNCC(O)Cn1c2ccc(Cl)cc2c2cc(Cl)ccc21 (stereo not drawn)	Plasmodium yoelii	oxygen consumption	17XL	2 µM		inhibition	10%
CCCNCCc1c[nH]c2cccc(O)c12.CCCNCCc1c[nH]c2cccc(O)c12.O=C(O)/C=C/C(=O)O			C57BL/6J mice	subcutaneous, 0.3 mg/kg, 30 min		distance travelled	2470 ± 180 cm

Structure (SMILES)	tested on	test	test system	conditions	scale	endpoint	result
C[C@H]1O[C@@H](O[C@H]2CC[C@@]3(C)[C@@H](CC[C@]4(C)[C@@H]3C=C[C@]35OC[C@@]6(CCC(C)(C)C[C@H]63)[C@@H](O)C[C@]54C)[C@]2(C)CO)[C@H](O)[C@@H](O[C@@H]2O[C@H](CO)[C@@H](O)[C@H](O)[C@H]2O)[C@H]1O			mouse, pair-fed, hepatic SIRT1 knockdown, plasma	dose not given, high dose		AST/ALT ratio	1.72 and 2.07 and 2.12 and 1.36 and 2.82 and 2.14
Cc1nc(O)n2ncc(Cl)c2n1	Tetrahymena pyriformis and Klebsiella pneumoniae	virulence in co-culture				IC50	740 nM
Nc1ncnc2c1ncn2[C@@H]1O[C@@H]2COP(=O)(O)O[C@H]3[C@@H](O)[C@H](n4cnc5c(=O)[nH]cnc54)O[C@@H]3COP(=O)(O)O[C@H]2[C@H]1O	West Nile virus	RNA sequencing, measured: DDX58/IFIH1 interferon-alpha/beta induction R-HSA-168928	HFF-1 cells	concentration not given, upregulated pathway	relative to: WNV-infected untreated cells	fold enrichment	4.17
C=CCNCCc1c[nH]c2cccc(O)c12.C=CCNCCc1c[nH]c2cccc(O)c12.O=C(O)/C=C/C(=O)O			C57BL/6J mice	subcutaneous, 0.03 mg/kg		head twitch count	6.3 ± 0.9
CC[C@H](C)[C@H](NC(=O)[C@H](CC(C)C)NC(=O)[C@@H]1CCCN1C(=O)[C@@H](N)CC(C)C)C(=O)N[C@H](C(=O)N[C@@H](Cc1ccccc1)C(=O)N[C@@H](CC(C)C)C(=O)N[C@@H](CCCNC(=N)N)C(=O)N[C@@H](CC(N)=O)C(=O)N[C@@H](CCCNC(=N)N)C(=O)N[C@@H](CC(C)C)C(=O)N[C@@H](CCCCN)C(=O)N[C@@H](Cc1ccc(O)cc1)C(=O)O)[C@@H](C)CC	Staphylococcus haemolyticus					MBC	64 µg/mL (≈ 38.6 µM)
CCCCCCCCn1nnc2c1C(Cc1ccccc1)(C(=O)OCC)CN(c1ccccc1)C2 (stereo not drawn)	human adenovirus 2	viral replication	HEL			EC50	> 100000 nM
CS(=O)(=O)CCCn1c(Cn2c(=O)n(CC(F)(F)F)c3ccncc32)cc2cc(Cl)ccc21	respiratory syncytial virus	RT-qPCR	hospitalized infants 1-24 months, nasal swab	oral, 1-9 mg/kg daily, day 14, all doses combined	relative to: placebo	LS mean difference vs placebo	-0.74 log10 copies/mL
Cn1c(=O)ccc2ccc(F)c(CCNC[C@H]3CN(c4cnc5c(n4)NC(=O)CO5)C(=O)O3)c21	Enterococcus faecium					MIC50	0.03 µg/mL (≈ 0.064 µM)
COc1ccc2c(ccc3oc([N+](=O)[O-])c(C)c32)c1	Klebsiella aerogenes	REMA				MIC90	> 32 µg/mL
[O-][N+]1=C(c2ccc(Cl)cc2)C2=NCCN2c2ccccc21	Parabacteroides distasonis and Bacteroides spp.	bacterial growth				MIC50	≤ 0.06 µg/mL
COc1c(CCC[P+](c2ccccc2)(c2ccccc2)c2ccccc2)cc2c(c1OC)OCO2.[I-]	K562	SRB				GI50	-6.28 log M
CSc1nc2nnnc(O)c2s1	Tetrahymena pyriformis and Klebsiella pneumoniae	virulence in co-culture				IC50	240 nM
COc1cccc(C(=O)NN(C(=O)c2cc(C)cc(C)c2)C(C)(C)C)c1C	Anopheles gambiae		G3, lab susceptible	topical, 0.4 %	relative to: control	adult lifespan	decreased
O=C(O)c1cccc(C(=O)O)n1	Klebsiella aerogenes		VIM-1 producer	32 µg/mL, added: meropenem		meropenem MIC	0.5 µg/mL
CSc1nc(C)c(Cl)c(O)n1	Tetrahymena pyriformis and Klebsiella pneumoniae	virulence in co-culture				IC50	1560 nM
COC1=CC(c2ccc[nH]2)=N/C1=C\c1[nH]c(C)cc1-c1ccc(Cl)cc1.Cl	Plasmodium yoelii		CF1 mice	oral, 10 mg/kg daily for 4 days, day 5	relative to: vehicle	parasitaemia reduction	100%

Repeated from above:
Structure (SMILES)	tested on	test	test system	conditions	scale	endpoint	result
CCCCCCCCn1nnc2c1C(Cc1ccccc1)(C(=O)OCC)CN(c1ccccc1)C2 (stereo not drawn)	human adenovirus 2	viral replication	HEL			EC50	> 100000 nM
CS(=O)(=O)CCCn1c(Cn2c(=O)n(CC(F)(F)F)c3ccncc32)cc2cc(Cl)ccc21	respiratory syncytial virus	RT-qPCR	hospitalized infants 1-24 months, nasal swab	oral, 1-9 mg/kg daily, day 14, all doses combined	relative to: placebo	LS mean difference vs placebo	-0.74 log10 copies/mL
Cn1c(=O)ccc2ccc(F)c(CCNC[C@H]3CN(c4cnc5c(n4)NC(=O)CO5)C(=O)O3)c21	Enterococcus faecium					MIC50	0.03 µg/mL (≈ 0.064 µM)
COc1ccc2c(ccc3oc([N+](=O)[O-])c(C)c32)c1	Klebsiella aerogenes	REMA				MIC90	> 32 µg/mL
